# Experimental data gathered from unrelated publications.
# Numbered parts are unrelated; each lists some results of a single study. Several values in a cell are separate wells, animals, samples, runs or records.

# Series 1 — cell line: U-87 MG; tested at: concentration not given; baseline: DMSO
# SMILES: CCN1/C(=C/C=C2\CCCC(/C=C/C3=[N+](CC)c4ccccc4C3(C)C)=C2NCCCCCCCCN2CCC(Nc3nc4ccccc4n3Cc3ccc(F)cc3)CC2)C(C)(C)c2ccccc21
measured,log2 fold change
VEPH1 mRNA,1.86
COBLL1 mRNA,1.4
RPTN mRNA,-3.39
WNT10B mRNA,-2.31
VTI1A mRNA,1.02
C14orf132 mRNA,-1.07
ADPRM mRNA,1.17
CKLF-CMTM1 mRNA,-4.35

# Series 2 — organism: Arabidopsis thaliana; strain: Col-0
# SMILES: COc1ccc2c(c1)OC(O)(C(=O)O)C(=O)N2Cc1ccccc1 (stereo not shown)
tested at,notes,hypocotyl length
50 µg/mL,"seed germination, single repetition",1.34 cm and 1.32 cm and 1.35 cm
12.5 µg/mL,"seed germination, repetition mean",1.84 cm
12.5 µg/mL,"seed germination, single repetition",1.84 cm and 1.88 cm and 1.81 cm and 1.85 cm and 1.83 cm
6.25 µg/mL,"seed germination, repetition mean",1.9 cm
100 µg/mL,"seed germination, single repetition",1.02 cm and 1.1 cm and 1.01 cm and 1.09 cm and 1.11 cm
50 µg/mL,"seed germination, repetition mean",1.33 cm
3.125 µg/mL,"seed germination, repetition mean",1.97 cm
3.125 µg/mL,"seed germination, single repetition",1.88 cm and 2.01 cm and 2.03 cm and 1.99 cm and 1.9 cm

# Other studies, line by line
Structure (SMILES),tested on,sample,tested at,time,notes,quantity,result
Cn1cc(-c2cccc(CN3CCC4(CC3)COc3c4ccc4c3CN([C@H]3CCC(=O)NC3=O)C4=O)c2)cn1,human Treg:Teff co-culture,,concentration not given,,Treg suppression,proliferating CD8+ Teff cells,59.7% and 60.9% and 85.4% and 90.3% and 69.1% and 92.3% and 82% and 37.8%
CC(=O)N[C@@H](Cc1c[nH]c2ccccc12)C(=O)N[C@@H](CCC(=O)C=[N+]=[N-])C(=O)OC(CF)CF,,CES1-/- mouse GI tissue homogenate,,60 min,,remaining compound,1%
CN(C)CC#Cc1ccc(OCCCc2sc(N3CCc4cccc(C(=O)Nc5nc6ccccc6s5)c4C3)nc2C(=O)O)c(F)c1,colorectal cancer organoid sample I,,,4 days,,IC50,0.11 µM
